Results gathered from unrelated publications.
Every numbered part comes from another study and shows a few of its results, in no order. Changes are numbered by the printed parent chain.

Study 1 — technique: protein binding microarray; molecule type: double-stranded DNA, one strand shown; sample: in vitro; concentration: not given; reference: not given; direction: higher = stronger binding; endpoint: E-score
Target: Histone acetyltransferase KAT6A, both winged helices, GST fusion (KAT6A, Homo sapiens, UniProt Q92794, residues 1-181)
Setting: 8-mer, flanks averaged, mean of 2 arrays, mostly near background
Residues (chain): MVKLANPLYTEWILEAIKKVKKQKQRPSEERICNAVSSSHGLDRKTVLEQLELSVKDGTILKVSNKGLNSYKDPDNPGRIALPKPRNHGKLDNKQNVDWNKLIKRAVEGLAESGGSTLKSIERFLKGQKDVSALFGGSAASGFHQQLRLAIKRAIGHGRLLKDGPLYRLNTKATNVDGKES
ACCTACAA: -0.0381
CGTTCCCA: -0.0327
CTCGTTAA: -0.0689
AAAGAGGT: -0.216
ATCCAGTA: -0.183
AATCCTCT: -0.191
GAGGGGCC: -0.273
CTCCTGCC: -0.144

Study 2 — target: CRIPT, C-terminal peptide; technique: DHFR complementation, deep sequencing; sample: yeast; reference: wild type; direction: higher = weaker binding; endpoint: binding free energy change
Setting: single substitutions, model-inferred values
Starting sequence: ERBIN, PDZ domain 1 (human); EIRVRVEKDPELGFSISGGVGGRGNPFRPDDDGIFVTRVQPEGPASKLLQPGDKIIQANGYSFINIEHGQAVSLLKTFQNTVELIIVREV; partner TKNYKQTSV
L49M: -0.0389 kcal/mol
D31E: 0.216 kcal/mol
P44E: 0.687 kcal/mol
R88E: 1.12 kcal/mol
E11I: -0.452 kcal/mol
V87C: 0.0694 kcal/mol
G24N: 1.39 kcal/mol
V72W: 2.14 kcal/mol

Study 3 — Substance: VIM (Homo sapiens, UniProt P08670); technique: cross-linking MS; sample: cell fractions; endpoint: cross-linked residues
ABCA10 (Homo sapiens, UniProt Q8WWZ4); together with: DSSO: K120 to K1328
ELAC1 (Homo sapiens, UniProt Q9H777); together with: DSSO: K445 to K176
PLEC (Homo sapiens, UniProt Q15149); together with: DSSO: K168 to K4513
DNM1 (Homo sapiens, UniProt Q05193); together with: DMTMM: D209 to K508
ADNP2 (Homo sapiens, UniProt Q6IQ32); together with: DSSO: K313 to Y1046
NES (Homo sapiens, UniProt P48681); together with: DSSO: K120 to T322
VPS13D (Homo sapiens, UniProt Q5THJ4); together with: DSSO: K188 to S1433
TAOK1 (Homo sapiens, UniProt Q7L7X3); together with: DSSO: K129 to K716

Other studies, line by line
Starting sequence: viral docking peptide; TSVRRALFTGGSD; partner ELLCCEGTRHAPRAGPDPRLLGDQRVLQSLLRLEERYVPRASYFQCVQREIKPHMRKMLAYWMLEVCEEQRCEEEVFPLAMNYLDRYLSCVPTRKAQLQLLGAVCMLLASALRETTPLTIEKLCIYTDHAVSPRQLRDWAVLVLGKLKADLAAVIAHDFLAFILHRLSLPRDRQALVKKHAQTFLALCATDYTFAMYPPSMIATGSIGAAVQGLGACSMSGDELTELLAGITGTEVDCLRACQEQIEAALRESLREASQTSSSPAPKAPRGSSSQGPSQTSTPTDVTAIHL
TSVRRARFTGGSD [L7R]  normalised enrichment score (CCND3, cyclin fold, Cln2 fusion (human); yeast growth competition, sequencing; yeast; weak parent motif; reference: not given, higher = stronger binding): 0.642

Some of these lines once more (study 1):
ACCTACAA: -0.0381
ATCCAGTA: -0.183
AATCCTCT: -0.191
CTCGTTAA: -0.0689
